Assay results gathered from unrelated publications.
Protocols differ between the studies behind these lines. Several values in a cell are separate wells, animals, samples, runs or records. Numbers after ± are the reported error.

| Structure (SMILES) | organism | assay | test system | conditions | EC50 |
| --- | --- | --- | --- | --- | --- |
| Nc1ccn(C[C@@H](CO)OCP(=O)(O)OCCCS(=O)(=O)CCCCCCCCCCC2CCC2)c(=O)n1 | JC polyomavirus | qPCR | COS-7, MAD-4 | 7 days | 0.075 ± 0.007 µM |
| Nc1ncnc2c1c(-c1ccc(Cl)c(Cl)c1)cn2[C@H]1C[C@H](O)[C@@H](CO)O1 | Trichomonas vaginalis | resorufin | G3, metronidazole-sensitive | 24 h + 2 h, 2% O2 | 0.42 ± 0.057 µM |
| C=C(C)[C@@H]1CC[C@]2(CO)CC[C@]3(C)[C@H](CC[C@@H]4[C@@]5(C)CCCNC(C)(C)[C@@H]5CC[C@]43C)[C@@H]12 | Human cytomegalovirus | cytopathic effect | HFF, AD169 | – | 0.15 µM |
| Nc1cc2nc(-c3cccc(C(F)(F)F)c3)cn2cn1 | Trypanosoma cruzi | – | 3T3 host cells, Tulahuen beta-galactosidase | 6 days | > 20 µM |
| CC1(C)CC[C@]23CC[C@]4(C)[C@H](CC[C@@H]5[C@@]6(C)CCCNC(C)(C)[C@@H]6CC[C@]54C)[C@H]2[C@H]1OC3 | Human cytomegalovirus | cytopathic effect | HFF, AD169 | – | > 30 µM |
| CC1(CCCCCCCCCCOCCCOP(=O)(O)CO[C@H](CO)Cn2ccc(N)nc2=O)COC1 | JC polyomavirus | qPCR | COS-7, MAD-4 | 7 days | 0.53 ± 0.66 µM |
| CCOC(=O)c1c(C)oc2nc(N3CCOCC3)ccc12 | Trypanosoma cruzi | – | 3T3 host cells, Tulahuen beta-galactosidase | 6 days | 17.4 µM |
| O=C1C=C[C@H](O/C=C2/C(=O)O[C@@H]3c4ccccc4C[C@H]23)O1 (racemic) | Phelipanche ramosa | seed germination | – | – | 0.00045 µM |
| CC(C)c1oc2nc(N3CCCC3)ccc2c1C(=O)O | Trypanosoma cruzi | – | 3T3 host cells, Tulahuen beta-galactosidase | 6 days | > 20 µM |
| c1ccc(-c2nc(-c3ccc4ccccc4c3)c[nH]2)cc1 | Schistosoma mansoni | worm killing | male worms | – | > 100 µM |
| COc1ccc(-n2nc3c(=O)n(Cc4cccc([N+](=O)[O-])c4)nc(C)c3c2C)cc1 | Zika virus | viral replication, immunofluorescence | Vero, MR766 | 24 h | 25.6 ± 2.8 µM |
| CC1=C[C@H](O/C=C2/C(=O)O[C@@H]3c4ccccc4C[C@H]23)OC1=O | Phelipanche ramosa | seed germination | – | – | 6.5e-06 µM |
| CN(C)Cc1cc(/C=C/C(=O)c2ccc(Cl)cc2)ccc1O | Plasmodium knowlesi | parasite growth | – | 24 h, blood stage | 2.98 µM |
| C=C(C)[C@@H]1CC[C@]2(C(=O)NC(CO)Cc3ccccc3)CC[C@]3(C)[C@H](CC[C@@H]4[C@@]5(C)CCCNC(C)(C)[C@@H]5CC[C@]43C)[C@@H]12 (some centres unmarked) | Human cytomegalovirus | cytopathic effect | HFF, AD169 | – | > 1.2 µM |
| Cc1cc(Cl)cc(-c2cn([C@@H]3O[C@H](CO)[C@@H](O)[C@H]3O)c3ncnc(N)c23)c1 | Trichomonas vaginalis | resorufin | G3, metronidazole-sensitive | 24 h + 2 h, 2% O2 | 23.5 ± 0.41 µM |
| CCOC(=O)c1c(C(C)C)oc2nc(N3CCOCC3)ccc12 | Trypanosoma cruzi | – | 3T3 host cells, Tulahuen beta-galactosidase | 6 days | 4.81 µM |
| Cc1nn(-c2cccc(C(=O)O)c2)c(=O)c2nn(-c3ccccc3)c(C)c12 | Zika virus | viral replication, immunofluorescence | Vero, MR766 | 24 h | > 1000 µM |
| COc1ccc(-c2cn([C@H]3C[C@H](O)[C@@H](CO)O3)c3ncnc(N)c23)cc1 | Trichomonas vaginalis | resorufin | G3, metronidazole-sensitive | 24 h + 2 h, 2% O2 | 1.41 ± 0.34 µM |
| CN(C)Cc1c(-c2ccc(F)c(F)c2)nc2ccccn12 | Trypanosoma cruzi | – | 3T3 host cells, Tulahuen beta-galactosidase | 6 days | > 20 µM |
| Nc1ncnc2c1c(-c1ccc(OC(F)(F)F)cc1)cn2[C@@H]1O[C@H](CO)[C@@H](O)[C@H]1O | Trichomonas vaginalis | resorufin | G3, metronidazole-sensitive | 24 h + 2 h, 2% O2 | 1.99 ± 0.26 µM |
| Nc1ccn(C[C@@H](CO)OCP(=O)(O)OCCCS(=O)(=O)CCCCCCCCCCCCC2CCC2)c(=O)n1 | JC polyomavirus | qPCR | COS-7, MAD-4 | 7 days | 0.05 ± 0.03 µM |

| Structure (SMILES) | organism | assay | test system | conditions | EC50 |
| --- | --- | --- | --- | --- | --- |
| CCOC(=O)[C@@H](C)NP(=O)(CO[C@H](CF)CN1CNC(N)=NC1=O)N[C@H](C)C(=O)OCC | human cytomegalovirus | cytopathic effect | HEL, Davis | – | > 100 µM |
| Nc1ncnc2c1c(-c1ccc(C(F)(F)F)c(Cl)c1)cn2[C@@H]1O[C@H](CO)[C@@H](O)[C@H]1O | Trichomonas vaginalis | resorufin | G3, metronidazole-sensitive | 24 h + 2 h, 2% O2 | 0.37 ± 0.01 µM |
| O=C(Nc1cc2nc(-c3ccccc3)cn2cn1)Oc1ccc([N+](=O)[O-])cc1 | Trypanosoma cruzi | – | 3T3 host cells, Tulahuen beta-galactosidase | 6 days | > 20 µM |
| COc1cc(Br)c(Nc2nc(-c3c(C)nc4ncccn34)cs2)c(Br)c1 | Enterovirus A71 | viral RNA accumulation, qRT-PCR | Vero or RD | 24 h | 0.89 µM |
| C=C(C)[C@@H]1CCC=C2CC[C@]3(C)[C@H](CC[C@@H]4[C@@]5(C)CCCNC(C)(C)[C@@H]5CC[C@]43C)[C@H]21 | Human cytomegalovirus | cytopathic effect | HFF, AD169 | – | > 6 µM |
| O=C1OC2(c3ccccc31)c1cc(I)c(O)c(I)c1Oc1c2cc(I)c(O)c1I | Zika virus | viral replication, plaque reduction | A549, PRVABC59 | – | 0.62 µM |
| Cc1n[nH]c(=O)c2nn(-c3ccccc3)c(C)c12 | Zika virus | viral replication, immunofluorescence | Vero, MR766 | 24 h | 697.5 ± 4.9 µM |
| Cc1ccc(-c2cn([C@H]3C[C@H](O)[C@@H](CO)O3)c3ncnc(N)c23)cc1 | Trichomonas vaginalis | resorufin | G3, metronidazole-sensitive | 24 h + 2 h, 2% O2 | 0.65 ± 0.34 µM |
| COC(=O)c1cccc(-n2nc(C)c3c(C)n(-c4ccccc4)nc3c2=O)c1 | Zika virus | viral replication, immunofluorescence | Vero, MR766 | 24 h | 218 ± 3.8 µM |
| O=C(Nc1cc2nc(-c3ccccc3)cn2cn1)c1ccc(F)c(F)c1 | Trypanosoma cruzi | – | 3T3 host cells, Tulahuen beta-galactosidase | 6 days | ~10 µM and 10.5 µM |
| Nc1ncnc2c1c(-c1ccc(F)c(Cl)c1)cn2[C@@H]1O[C@H](CO)[C@@H](O)[C@H]1O | Trichomonas vaginalis | resorufin | G3, metronidazole-sensitive | 24 h + 2 h, 2% O2 | 0.34 ± 0.062 µM |
| Cc1ccc2nc(-c3ccc(F)c(F)c3)c(CO)n2c1 | Trypanosoma cruzi | – | 3T3 host cells, Tulahuen beta-galactosidase | 6 days | > 5 µM |
| CCOC(=O)[C@@H](C)NP(=O)(CO[C@H](CF)Cn1cnc(N)nc1=O)N[C@H](C)C(=O)OCC | human cytomegalovirus | cytopathic effect | HEL, Davis | – | > 100 µM |
| C=C(C)[C@@H]1CC[C@]2(C(=O)N3CCN(C)CC3)CC[C@]3(C)[C@H](CC[C@@H]4[C@@]5(C)CCCNC(C)(C)[C@@H]5CC[C@]43C)[C@@H]12 | Human cytomegalovirus | cytopathic effect | HFF, AD169 | – | > 30 µM |
| Cc1nn(-c2cccc(C(=O)NC(C)C)c2)c(=O)c2nn(-c3ccccc3)c(C)c12 | Zika virus | viral replication, immunofluorescence | Vero, MR766 | 24 h | 87.2 ± 7.3 µM |
| Cc1ccc(-c2cn([C@@H]3O[C@H](CO)[C@@H](O)[C@H]3O)c3ncnc(N)c23)cc1F | Trichomonas vaginalis | resorufin | G3, metronidazole-sensitive | 24 h + 2 h, 2% O2 | 0.36 ± 0.02 µM |
| CC(=O)Nc1cccc(Cn2nc(C)c3c(C)n(-c4ccccc4)nc3c2=O)c1 | Zika virus | viral replication, immunofluorescence | Vero, MR766 | 24 h | 204 ± 3.2 µM |
| CC1(C)NCCC[C@]2(C)[C@H]3C=CC4=C5C[C@@](C)(CO)CC[C@]5(C)CC[C@@]4(C)[C@]3(C)CC[C@@H]12 | Human cytomegalovirus | cytopathic effect | HFF, AD169 | – | > 30 µM |
| COc1ccc(-n2nc3c(=O)n(Cc4cccc(NC(C)=O)c4)nc(C)c3c2C)cc1 | Zika virus | viral replication, immunofluorescence | Vero, MR766 | 24 h | 124 ± 4.6 µM |
| COc1ccc(S(=O)(=O)NCc2c[nH]nc2-c2cccs2)cc1 | Plasmodium falciparum | parasite growth | HC04, NF54 | blood stage | 0.816 µM |

For quick reference, copied from above:
| Structure (SMILES) | organism | assay | test system | conditions | EC50 |
| --- | --- | --- | --- | --- | --- |
| CC1(C)CC[C@]23CC[C@]4(C)[C@H](CC[C@@H]5[C@@]6(C)CCCNC(C)(C)[C@@H]6CC[C@]54C)[C@H]2[C@H]1OC3 | Human cytomegalovirus | cytopathic effect | HFF, AD169 | – | > 30 µM |
| CC1(CCCCCCCCCCOCCCOP(=O)(O)CO[C@H](CO)Cn2ccc(N)nc2=O)COC1 | JC polyomavirus | qPCR | COS-7, MAD-4 | 7 days | 0.53 ± 0.66 µM |
